Measured values from different studies.
Parts stem from different laboratories: compare values within a part only. Positions count from the first letter of the parent shown.
UniProt P10721, sequence (whole entry, unmodified, looked up): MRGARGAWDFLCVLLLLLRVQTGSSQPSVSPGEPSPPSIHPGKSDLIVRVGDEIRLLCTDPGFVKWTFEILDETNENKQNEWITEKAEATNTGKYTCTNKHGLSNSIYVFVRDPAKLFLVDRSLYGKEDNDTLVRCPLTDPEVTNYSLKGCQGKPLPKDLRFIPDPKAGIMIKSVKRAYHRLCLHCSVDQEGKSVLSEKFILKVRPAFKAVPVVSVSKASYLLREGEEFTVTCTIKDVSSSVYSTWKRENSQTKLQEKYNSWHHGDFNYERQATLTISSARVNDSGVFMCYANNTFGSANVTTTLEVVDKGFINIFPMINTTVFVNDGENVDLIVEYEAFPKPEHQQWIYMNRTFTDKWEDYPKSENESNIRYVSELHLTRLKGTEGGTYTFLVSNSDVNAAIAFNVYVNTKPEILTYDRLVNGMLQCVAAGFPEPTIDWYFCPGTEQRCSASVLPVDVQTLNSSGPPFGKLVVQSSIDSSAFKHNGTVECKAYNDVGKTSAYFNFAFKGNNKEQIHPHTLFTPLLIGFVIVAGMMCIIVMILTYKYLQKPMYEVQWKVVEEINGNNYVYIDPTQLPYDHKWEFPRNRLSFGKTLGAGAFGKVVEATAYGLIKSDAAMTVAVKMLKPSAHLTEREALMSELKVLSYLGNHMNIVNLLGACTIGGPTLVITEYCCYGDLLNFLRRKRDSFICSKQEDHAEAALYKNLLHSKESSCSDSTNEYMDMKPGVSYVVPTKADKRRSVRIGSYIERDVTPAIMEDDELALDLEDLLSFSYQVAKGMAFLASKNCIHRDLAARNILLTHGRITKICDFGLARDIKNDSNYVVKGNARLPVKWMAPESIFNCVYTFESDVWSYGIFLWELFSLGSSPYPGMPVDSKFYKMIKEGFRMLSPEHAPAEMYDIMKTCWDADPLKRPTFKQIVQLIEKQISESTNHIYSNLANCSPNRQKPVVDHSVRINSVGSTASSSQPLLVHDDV
UniProt Q9H3Y6, sequence (whole entry, looked up): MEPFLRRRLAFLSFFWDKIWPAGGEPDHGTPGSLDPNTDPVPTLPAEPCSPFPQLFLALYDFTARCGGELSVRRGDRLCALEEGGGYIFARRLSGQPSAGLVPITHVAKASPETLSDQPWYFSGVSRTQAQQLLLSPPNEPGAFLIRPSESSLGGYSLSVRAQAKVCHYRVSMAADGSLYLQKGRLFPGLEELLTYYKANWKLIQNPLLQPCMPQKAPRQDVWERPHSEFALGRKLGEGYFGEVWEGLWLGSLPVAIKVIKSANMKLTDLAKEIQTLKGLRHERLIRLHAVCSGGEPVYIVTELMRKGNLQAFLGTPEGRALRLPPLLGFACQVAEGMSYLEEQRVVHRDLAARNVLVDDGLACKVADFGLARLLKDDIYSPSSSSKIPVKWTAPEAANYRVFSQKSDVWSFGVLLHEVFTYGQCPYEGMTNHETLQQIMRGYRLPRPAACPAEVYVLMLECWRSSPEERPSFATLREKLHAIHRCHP
UniProt Q7L7X3, sequence (whole entry, looked up): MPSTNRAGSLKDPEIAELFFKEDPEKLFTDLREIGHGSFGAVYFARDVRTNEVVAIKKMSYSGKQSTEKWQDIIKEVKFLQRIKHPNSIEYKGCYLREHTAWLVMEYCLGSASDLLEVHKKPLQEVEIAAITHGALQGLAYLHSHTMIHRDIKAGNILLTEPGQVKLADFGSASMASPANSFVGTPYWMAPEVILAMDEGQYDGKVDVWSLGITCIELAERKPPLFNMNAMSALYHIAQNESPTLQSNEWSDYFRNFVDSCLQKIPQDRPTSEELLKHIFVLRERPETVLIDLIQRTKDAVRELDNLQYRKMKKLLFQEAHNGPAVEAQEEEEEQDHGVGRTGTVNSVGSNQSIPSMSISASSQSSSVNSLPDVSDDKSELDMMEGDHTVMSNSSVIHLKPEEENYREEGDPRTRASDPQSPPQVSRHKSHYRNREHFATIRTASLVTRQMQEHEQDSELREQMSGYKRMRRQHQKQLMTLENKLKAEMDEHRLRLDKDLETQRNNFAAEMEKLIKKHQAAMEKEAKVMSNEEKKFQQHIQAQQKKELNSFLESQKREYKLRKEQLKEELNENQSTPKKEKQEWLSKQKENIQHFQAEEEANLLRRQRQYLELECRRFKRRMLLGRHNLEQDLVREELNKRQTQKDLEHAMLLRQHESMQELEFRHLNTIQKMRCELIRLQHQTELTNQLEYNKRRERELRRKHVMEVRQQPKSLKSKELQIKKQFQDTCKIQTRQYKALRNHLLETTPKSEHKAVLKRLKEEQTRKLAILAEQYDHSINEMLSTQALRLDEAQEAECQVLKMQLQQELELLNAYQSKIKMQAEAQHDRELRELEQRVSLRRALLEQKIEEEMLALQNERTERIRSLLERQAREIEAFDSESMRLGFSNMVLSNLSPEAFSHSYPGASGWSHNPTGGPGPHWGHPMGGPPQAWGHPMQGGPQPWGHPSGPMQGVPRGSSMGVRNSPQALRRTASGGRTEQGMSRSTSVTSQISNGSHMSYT
UniProt P07947, sequence (whole entry, looked up): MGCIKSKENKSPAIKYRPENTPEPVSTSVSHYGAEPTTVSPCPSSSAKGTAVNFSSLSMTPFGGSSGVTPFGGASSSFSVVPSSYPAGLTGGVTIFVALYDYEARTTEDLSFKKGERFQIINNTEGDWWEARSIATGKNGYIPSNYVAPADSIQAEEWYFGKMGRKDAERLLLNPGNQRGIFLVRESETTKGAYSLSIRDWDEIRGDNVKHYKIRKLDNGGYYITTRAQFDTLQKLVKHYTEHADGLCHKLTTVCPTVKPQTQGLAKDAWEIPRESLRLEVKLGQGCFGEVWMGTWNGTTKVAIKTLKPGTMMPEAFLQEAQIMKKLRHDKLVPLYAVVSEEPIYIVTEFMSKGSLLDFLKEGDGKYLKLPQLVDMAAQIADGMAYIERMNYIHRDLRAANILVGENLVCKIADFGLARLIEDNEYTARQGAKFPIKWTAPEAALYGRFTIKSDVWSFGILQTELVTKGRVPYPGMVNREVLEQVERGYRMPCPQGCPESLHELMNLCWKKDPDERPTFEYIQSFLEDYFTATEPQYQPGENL
UniProt Q9HAZ1, sequence (whole entry, looked up): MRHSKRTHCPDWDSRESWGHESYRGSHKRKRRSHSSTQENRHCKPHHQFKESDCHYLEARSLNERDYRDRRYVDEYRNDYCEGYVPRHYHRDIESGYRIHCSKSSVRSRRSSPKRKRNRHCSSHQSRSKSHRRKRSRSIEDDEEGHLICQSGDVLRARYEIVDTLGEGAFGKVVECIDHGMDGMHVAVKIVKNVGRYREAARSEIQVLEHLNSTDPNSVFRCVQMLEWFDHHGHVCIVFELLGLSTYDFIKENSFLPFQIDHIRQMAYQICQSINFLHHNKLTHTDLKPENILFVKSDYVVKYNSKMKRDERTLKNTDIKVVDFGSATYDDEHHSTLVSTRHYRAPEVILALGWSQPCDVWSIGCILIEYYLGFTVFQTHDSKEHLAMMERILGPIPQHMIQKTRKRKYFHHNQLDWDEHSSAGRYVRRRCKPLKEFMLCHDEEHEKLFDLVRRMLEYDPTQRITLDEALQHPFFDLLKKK
UniProt Q13470, sequence (whole entry, looked up): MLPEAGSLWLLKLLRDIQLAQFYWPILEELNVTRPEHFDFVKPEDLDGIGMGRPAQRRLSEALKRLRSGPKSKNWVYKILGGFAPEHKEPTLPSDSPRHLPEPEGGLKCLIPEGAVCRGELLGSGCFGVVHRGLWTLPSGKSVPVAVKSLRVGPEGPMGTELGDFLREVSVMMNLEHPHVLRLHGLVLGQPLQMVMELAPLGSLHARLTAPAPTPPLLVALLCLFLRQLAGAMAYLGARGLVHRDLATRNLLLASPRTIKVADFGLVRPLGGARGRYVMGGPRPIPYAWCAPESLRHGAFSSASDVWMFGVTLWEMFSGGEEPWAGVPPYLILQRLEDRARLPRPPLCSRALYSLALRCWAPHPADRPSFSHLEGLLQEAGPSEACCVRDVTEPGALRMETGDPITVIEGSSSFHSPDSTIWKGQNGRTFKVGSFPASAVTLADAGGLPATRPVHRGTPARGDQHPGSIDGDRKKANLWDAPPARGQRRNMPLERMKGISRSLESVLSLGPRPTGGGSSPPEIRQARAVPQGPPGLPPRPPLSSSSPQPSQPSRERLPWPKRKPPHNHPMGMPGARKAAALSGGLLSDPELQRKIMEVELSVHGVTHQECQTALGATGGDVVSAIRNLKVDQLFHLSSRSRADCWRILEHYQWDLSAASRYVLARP
UniProt P49759, sequence (whole entry, looked up): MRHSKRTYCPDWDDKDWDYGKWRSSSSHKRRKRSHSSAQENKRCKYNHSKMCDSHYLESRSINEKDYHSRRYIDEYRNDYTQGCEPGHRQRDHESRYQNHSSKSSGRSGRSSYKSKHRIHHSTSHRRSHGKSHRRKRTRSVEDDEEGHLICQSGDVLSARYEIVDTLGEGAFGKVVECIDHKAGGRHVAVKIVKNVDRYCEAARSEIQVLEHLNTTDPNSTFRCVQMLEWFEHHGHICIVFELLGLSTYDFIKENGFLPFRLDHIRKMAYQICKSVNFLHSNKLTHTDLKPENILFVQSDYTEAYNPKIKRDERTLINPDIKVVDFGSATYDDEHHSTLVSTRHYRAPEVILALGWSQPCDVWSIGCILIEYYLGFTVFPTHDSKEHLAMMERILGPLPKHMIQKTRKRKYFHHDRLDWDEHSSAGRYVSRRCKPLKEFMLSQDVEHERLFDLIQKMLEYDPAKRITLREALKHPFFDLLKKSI

Block 1
Target: CRIPT, C-terminal peptide
Method: DHFR complementation, deep sequencing
Sample: yeast
Notes: single substitutions, model-inferred values
Reference: wild type
Reading: higher = weaker binding
Parent: ERBIN, PDZ domain 1 (human); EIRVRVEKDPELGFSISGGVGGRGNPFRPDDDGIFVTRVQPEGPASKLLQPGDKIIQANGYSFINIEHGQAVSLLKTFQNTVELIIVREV; partner TKNYKQTSV
`F14H`: “binding free energy change” 1.04 kcal/mol.
`D9Y` — result for “binding free energy change”: 0.582 kcal/mol.
`D32R` — result for “binding free energy change”: 0.439 kcal/mol.
For `I16G`, “binding free energy change” read 1.47 kcal/mol.
Under “binding free energy change”, `E42R` is recorded as 0.0361 kcal/mol.
`P29W`: “binding free energy change” 0.139 kcal/mol.
`I16Y` — result for “binding free energy change”: 1.8 kcal/mol.
Under “binding free energy change”, `G69W` is recorded as 0.195 kcal/mol.

Block 2
Target: Aurora kinase A (AURKA, Homo sapiens, UniProt O14965)
Effect on: enzyme activity
Action: inhibitor
Tested at: 0.5 µM
Reference: control
Target sequence (O14965 1-403): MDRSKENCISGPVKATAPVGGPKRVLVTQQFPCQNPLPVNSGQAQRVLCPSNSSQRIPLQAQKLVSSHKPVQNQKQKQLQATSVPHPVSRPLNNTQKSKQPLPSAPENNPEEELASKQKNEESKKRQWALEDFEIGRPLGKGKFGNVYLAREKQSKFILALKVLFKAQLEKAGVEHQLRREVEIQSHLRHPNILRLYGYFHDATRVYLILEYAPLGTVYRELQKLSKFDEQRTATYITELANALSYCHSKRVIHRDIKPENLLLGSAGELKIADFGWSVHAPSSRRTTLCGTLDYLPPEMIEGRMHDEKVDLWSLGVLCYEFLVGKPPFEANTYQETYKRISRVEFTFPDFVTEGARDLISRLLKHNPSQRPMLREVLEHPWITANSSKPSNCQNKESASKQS
For N#Cc1c(NC(=O)c2cccc3ccccc23)sc2c1CCCC2, the remaining activity was 101%.
Cc1cn(-c2cc(NC(=O)c3ccc(C)c(Nc4nccc(-c5cccnc5)n4)c3)cc(C(F)(F)F)c2)cn1 gave a remaining activity of 78.9%.
For CCN(CC)CCNC(=O)c1c(C)[nH]c(/C=C2\C(=O)Nc3ccc(F)cc32)c1C, the remaining activity was 59.7%.
The remaining activity of COc1cc2ncnc(Nc3ccc(O)c(Br)c3)c2cc1OC is reported as 83.1%.
For Ic1cccc(CSc2nnc(-c3ccncc3)o2)c1, the remaining activity was 95.8%.
The remaining activity of CN(C)C[C@H]1CCn2c(c(C3=C(c4cn(C)c5ccccc45)C(=O)NC3=O)c3ccccc32)C1 is reported as 87.7%.
With Nc1cccc(-c2cc3c(Oc4cccc(O)c4)ncnc3[nH]2)c1 the remaining activity was 78.2%.
With CCN(CC)C(=O)c1ccc(Nc2nc(OCC3CCCCC3)c3[nH]cnc3n2)cc1 the remaining activity was 3.03%.
O=c1cc(-c2cccc3c2Sc2ccccc2S3)oc(N2CCOCC2)c1 has a remaining activity of 91.7%.
With O=C1C(Cl)=C(N2C(=O)CCC2=O)C(=O)c2ccccc21 the remaining activity was 104%.
For Cc1nc2cc3nc(-c4cccs4)cnc3cc2n1C, the remaining activity was 84.8%.
For N#C/C(=C\c1ccc(O)c(O)c1)C(=O)NCc1ccccc1, the remaining activity was 92.2%.
COc1cc2ncnc(Nc3cccc(Cl)c3)c2cc1OC gave a remaining activity of 93.3%.
For CCN(CC)CCNC(=O)c1c(C)[nH]c(/C=C2\C(=O)Nc3ccc(Cl)cc32)c1C, the remaining activity was 80.3%.
The remaining activity of COc1cc2c(cc1OC)-c1[nH]nc(Nc3cccc(F)c3)c1C2 is reported as 94.6%.
For Cc1cc2ncc(-c3ccccc3)nc2cc1C, the remaining activity was 92.1%.
The remaining activity of O=C1c2ccccc2-c2n[nH]c3cccc1c23 is reported as 32.2%.
Cn1nc2c3c(cccc31)C(=O)c1ccccc1-2 has a remaining activity of 89.4%.

Block 3
SMILES: CN(C)CC#Cc1ccc(OCCCc2sc(N3CCc4cccc(C(=O)Nc5nc6ccccc6s5)c4C3)nc2C(=O)O)c(F)c1
Effect on: cell-free assay
Method: competition with immobilised ligand
Tested at: 1 µM
It gave 97% for remaining binding (RAF proto-oncogene serine/threonine-protein kinase (RAF1, Homo sapiens, UniProt P04049)).
For Dual specificity protein kinase CLK4 (CLK4, Homo sapiens, UniProt Q9HAZ1): remaining binding read 74%.
The remaining binding was 88% (Dual specificity protein kinase CLK1 (CLK1, Homo sapiens, UniProt P49759)).
The remaining binding was 100% (Tyrosine-protein kinase Srms (SRMS, Homo sapiens, UniProt Q9H3Y6)).
For Tyrosine-protein kinase Yes (YES1, Homo sapiens, UniProt P07947): remaining binding read 100%.
The remaining binding was 100% (Receptor tyrosine-protein kinase erbB-3 (ERBB3, Homo sapiens, UniProt P21860)).
It gave 88% for remaining binding (Dual specificity tyrosine-phosphorylation-regulated kinase 1A (DYRK1A, Homo sapiens, UniProt Q13627)).
The remaining binding was 98% (Non-receptor tyrosine-protein kinase TNK1 (TNK1, Homo sapiens, UniProt Q13470)).
For Mast/stem cell growth factor receptor Kit (KIT, Homo sapiens, UniProt P10721): remaining binding read 97%.
The remaining binding was 78% (Mast/stem cell growth factor receptor Kit (KIT, Homo sapiens, UniProt P10721, V559D/V654A)).
The remaining binding was 100% (Serine/threonine-protein kinase TAO1 (TAOK1, Homo sapiens, UniProt Q7L7X3)).

Block 4
Target: Centromere-binding protein 1, full length, His-tagged (CBF1, Saccharomyces cerevisiae, UniProt P17106, residues 1-351)
UniProt P17106, sequence (whole entry, looked up): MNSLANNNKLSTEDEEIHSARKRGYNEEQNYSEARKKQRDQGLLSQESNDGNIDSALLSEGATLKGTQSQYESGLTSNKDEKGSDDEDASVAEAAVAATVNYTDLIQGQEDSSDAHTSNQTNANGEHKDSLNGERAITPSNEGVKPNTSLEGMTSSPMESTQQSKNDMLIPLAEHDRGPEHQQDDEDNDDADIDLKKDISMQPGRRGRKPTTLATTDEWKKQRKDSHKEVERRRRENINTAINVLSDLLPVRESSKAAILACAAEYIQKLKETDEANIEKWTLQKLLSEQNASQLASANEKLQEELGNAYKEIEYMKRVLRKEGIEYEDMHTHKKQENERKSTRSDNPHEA
Method: competition protein-binding microarray
Molecule type: double-stranded DNA, one strand shown
Sample: in vitro
Tested at: 2 µM
Notes: whole 60-bp probe, lowest competitor level
Added: Pho4 competitor, 0.05 µM
Reading: higher = stronger binding
Shared flanks, not repeated: … GTCTTGATTCGCTTGACGCTGCTG
`AAACAGGGCGGCGTTCCCGTGCGGAAGGTGGTCTGC` gave a fluorescence intensity of 73.2 a.u.
The fluorescence intensity of `AAAGCGGTAATTTTTCACGTGGATTCACATATCTAT` is reported as 636 a.u.
The fluorescence intensity of `CTCGAGGATTGCCTACGCGTGGGACTGATCCACCAA` is reported as 57.8 a.u.
For `CGACCCAAATAGTTAAACGTGTGGATTATGGGTGCA`, the fluorescence intensity was 88.2 a.u.
`CTGAGCTTAATAAGCACCGTGCGATTACCTTCGTTT` gave a fluorescence intensity of 68.2 a.u.
With `CTAACGAAGGTTTGTCACCTGACTTACAAGCCAAGT` the fluorescence intensity was 1420 a.u.
`AAATAAGGATTTTTGCACGTATATCCAACAGAATTA` has a fluorescence intensity of 100 a.u.
`CTTCTGTAAATTTGGTAAGTGGGTGGACGCGCCCCG` has a fluorescence intensity of 85.6 a.u.

For quick reference, copied from above (block 1):
For `I16G`, “binding free energy change” read 1.47 kcal/mol.
`D32R` — result for “binding free energy change”: 0.439 kcal/mol.
`D9Y` — result for “binding free energy change”: 0.582 kcal/mol.
Under “binding free energy change”, `G69W` is recorded as 0.195 kcal/mol.
`F14H`: “binding free energy change” 1.04 kcal/mol.
`P29W`: “binding free energy change” 0.139 kcal/mol.
Under “binding free energy change”, `E42R` is recorded as 0.0361 kcal/mol.
